Results collected from several papers.
Each line is one published result; not all experiments were run side by side. Numbers after ± are the reported error.
Organism: Staphylococcus aureus

CCc1cc(=O)c2c(OCC(O)CN(CC)CC)c3ccoc3c(OC)c2o1 (stereo not drawn)  MIC (microbial growth, broth dilution; ATCC29; 19 h): > 256 µg/mL
O=[N+]([O-])c1ccc(C=Nc2nc[nH]n2)c(O)c1  MIC (microbial growth, broth dilution; ATCC29213): 32 µg/mL
CC(=O)NC[C@H]1CN(c2ccc(N3CCOCC3)c(F)c2)C(=O)O1  MIC (broth microdilution; USA300 LAC; 1% human serum): 4 µM
CCCCCCn1sc2ccccc2c1=O  MIC (panel of 28 strains): 0.25 to 62.5 µg/mL
CCc1cc(=O)c2c(OCC(O)CN3CCCCC3)c3ccoc3c(OC)c2o1 (stereo not drawn)  MIC (microbial growth, broth dilution; ATCC29; 19 h): > 256 µg/mL
Cc1ccc(C=Nc2nc[nH]n2)c(O)c1  MIC (broth microdilution; MRSA2, methicillin-resistant; 16 to 24 h): 64 µg/mL
CC(C)c1ccc(-n2sc3ccccc3c2=O)cc1  MIC (panel of 28 strains): ≤ 2 µg/mL
CCOC(=O)c1c(N)csc1-c1cn(-c2ccccc2)nc1-c1ccc(C)cc1  MIC (broth microdilution; clinical urinary isolate; compound gamma-irradiated 10 kGy): 0.123 ± 0.3 µg/mL
COc1ccc(C=Nc2ncn[nH]2)cc1  MIC (microbial growth, broth dilution; ATCC29213): > 256 µg/mL

Some of these lines once more:
O=[N+]([O-])c1ccc(C=Nc2nc[nH]n2)c(O)c1  MIC (microbial growth, broth dilution; ATCC29213): 32 µg/mL
